Results from different studies.
A part holds a random share of what one study measured. Positions count from the first letter of the parent shown.

Set 1
Substitution: S80K
Target: ABI1, truncated, D143A, DHFR fusion (Arabidopsis thaliana)
Technique: DHFR PCA, deep sequencing
Sample: yeast
Setting: methotrexate growth selection, single substitutions
Relative to: wild-type fitted maximum
Direction: higher = stronger binding
Starting sequence: PYL1, truncated, DHFR fusion (Arabidopsis thaliana); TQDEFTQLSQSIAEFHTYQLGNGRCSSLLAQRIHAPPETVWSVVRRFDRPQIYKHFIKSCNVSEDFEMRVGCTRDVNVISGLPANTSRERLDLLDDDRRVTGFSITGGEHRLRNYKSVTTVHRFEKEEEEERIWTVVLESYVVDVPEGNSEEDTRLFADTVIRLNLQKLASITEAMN
conditions	relative binding score
added: (+)-ABA 200 µM	75.6%
added: (+)-ABA 0 µM	1.16%
added: (+)-ABA 58 µM	37.9%
added: (+)-ABA 0.032 µM	-0.644%
added: (+)-ABA 17 µM	19.5%
added: (+)-ABA 710 µM	78.9%

Set 2
Target: Hepatocyte nuclear factor 3-beta, forkhead domain (FOXA2, Homo sapiens, UniProt Q9Y261, residues 142-269)
Technique: protein-binding microarray
Form: double-stranded DNA, one strand shown
Sample: in vitro
Concentration: not given
Setting: k-mer, scored over probes, only values ≥0.25
Direction: higher = stronger binding
Target sequence (chain): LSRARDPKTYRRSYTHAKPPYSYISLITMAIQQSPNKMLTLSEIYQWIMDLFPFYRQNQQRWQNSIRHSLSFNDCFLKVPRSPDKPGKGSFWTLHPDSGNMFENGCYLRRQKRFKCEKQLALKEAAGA
Oligonucleotide	E-score
ATAATGTG	0.315
CACATACA	0.316
ACTACCAT	0.287
GTTACACA	0.301
ATACAACA	0.367
AACACAAA	0.281
CAAACATC	0.272
TATTTAGA	0.28

Set 3
Target: TAR DNA-binding protein 43, full length, His tag (TARDBP, Homo sapiens, UniProt Q13148, residues 1-414)
Technique: RNA Bind-n-Seq
Form: RNA
Sample: in vitro
Concentration: 20 nM
Setting: 6-mer, flanks averaged, single round
Added: 150 mM KCl
Relative to: input library
Direction: higher = stronger binding
Oligonucleotide	6-mer enrichment (R)
AUGUUA	0.707
UCAAAG	0.706
UAUAAC	0.667
CGUAGG	1.35
UGCGAG	1.56
AUCAAG	0.671
GCUCCG	0.823
CCGGUU	0.694

Single results of other studies
Sequence	target	assay	system	conditions	quantity	result
WYYDFHFFV	HLA class I histocompatibility antigen, C alpha chain, allele C*04:01 (Homo sapiens, UniProt P10321)	peptide-MHC binding	peptide	concentration not given	binding	inactive

For quick reference, copied from above (single results of other studies):
Sequence	target	assay	system	conditions	quantity	result
WYYDFHFFV	HLA class I histocompatibility antigen, C alpha chain, allele C*04:01 (Homo sapiens, UniProt P10321)	peptide-MHC binding	peptide	concentration not given	binding	inactive
